Assay results of several laboratories.
Each numbered part is a random draw from the data of one study; scales do not carry over between parts.
UniProt Q9H3N8, sequence (whole entry, looked up): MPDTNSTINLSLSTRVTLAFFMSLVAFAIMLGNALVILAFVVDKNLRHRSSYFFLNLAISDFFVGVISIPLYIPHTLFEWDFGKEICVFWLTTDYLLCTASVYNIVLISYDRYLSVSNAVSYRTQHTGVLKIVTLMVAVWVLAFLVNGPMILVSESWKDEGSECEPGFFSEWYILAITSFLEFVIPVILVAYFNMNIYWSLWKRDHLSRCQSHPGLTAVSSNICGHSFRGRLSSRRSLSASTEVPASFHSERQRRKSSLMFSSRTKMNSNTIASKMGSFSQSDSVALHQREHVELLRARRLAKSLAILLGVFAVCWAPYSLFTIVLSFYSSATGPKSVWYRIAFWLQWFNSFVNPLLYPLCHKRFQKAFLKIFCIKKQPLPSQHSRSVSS
UniProt P13945, sequence (whole entry, looked up): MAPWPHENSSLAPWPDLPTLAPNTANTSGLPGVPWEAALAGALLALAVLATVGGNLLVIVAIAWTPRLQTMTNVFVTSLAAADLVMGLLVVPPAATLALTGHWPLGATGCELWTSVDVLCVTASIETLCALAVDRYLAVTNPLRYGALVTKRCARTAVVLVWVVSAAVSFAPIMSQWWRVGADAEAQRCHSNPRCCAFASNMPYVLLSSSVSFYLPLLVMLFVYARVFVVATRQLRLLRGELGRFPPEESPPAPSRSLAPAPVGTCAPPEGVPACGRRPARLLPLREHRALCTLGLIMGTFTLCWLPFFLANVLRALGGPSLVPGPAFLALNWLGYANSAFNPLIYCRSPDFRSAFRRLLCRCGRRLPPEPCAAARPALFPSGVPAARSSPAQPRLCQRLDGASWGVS
UniProt Q86UX6, sequence (whole entry, looked up): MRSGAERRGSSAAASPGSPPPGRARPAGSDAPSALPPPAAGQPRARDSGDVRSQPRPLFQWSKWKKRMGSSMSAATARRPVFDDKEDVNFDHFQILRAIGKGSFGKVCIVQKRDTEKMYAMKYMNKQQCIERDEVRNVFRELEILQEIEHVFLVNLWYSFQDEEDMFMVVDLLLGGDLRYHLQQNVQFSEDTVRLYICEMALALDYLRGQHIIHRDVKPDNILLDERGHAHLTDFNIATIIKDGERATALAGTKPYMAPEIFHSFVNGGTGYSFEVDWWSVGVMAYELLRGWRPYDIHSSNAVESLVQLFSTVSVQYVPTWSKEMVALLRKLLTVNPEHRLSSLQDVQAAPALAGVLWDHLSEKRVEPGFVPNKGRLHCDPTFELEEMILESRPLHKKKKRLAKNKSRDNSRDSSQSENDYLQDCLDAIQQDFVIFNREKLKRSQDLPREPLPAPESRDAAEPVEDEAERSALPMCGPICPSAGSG
UniProt P08912, sequence (whole entry, looked up): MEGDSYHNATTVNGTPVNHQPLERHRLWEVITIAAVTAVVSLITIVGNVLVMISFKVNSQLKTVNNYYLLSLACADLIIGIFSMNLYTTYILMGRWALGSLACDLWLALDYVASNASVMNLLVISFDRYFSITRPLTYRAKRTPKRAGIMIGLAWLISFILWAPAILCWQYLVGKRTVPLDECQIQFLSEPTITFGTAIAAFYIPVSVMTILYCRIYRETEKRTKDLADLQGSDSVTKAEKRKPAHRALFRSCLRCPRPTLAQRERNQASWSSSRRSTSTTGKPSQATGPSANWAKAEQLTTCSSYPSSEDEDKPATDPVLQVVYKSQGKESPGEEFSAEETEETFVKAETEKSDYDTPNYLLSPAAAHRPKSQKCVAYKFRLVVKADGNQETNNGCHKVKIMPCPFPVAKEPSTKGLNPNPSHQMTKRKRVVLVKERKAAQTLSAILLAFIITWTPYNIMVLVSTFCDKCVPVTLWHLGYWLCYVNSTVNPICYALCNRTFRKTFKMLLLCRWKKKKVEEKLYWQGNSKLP
UniProt P25021, sequence (whole entry, looked up): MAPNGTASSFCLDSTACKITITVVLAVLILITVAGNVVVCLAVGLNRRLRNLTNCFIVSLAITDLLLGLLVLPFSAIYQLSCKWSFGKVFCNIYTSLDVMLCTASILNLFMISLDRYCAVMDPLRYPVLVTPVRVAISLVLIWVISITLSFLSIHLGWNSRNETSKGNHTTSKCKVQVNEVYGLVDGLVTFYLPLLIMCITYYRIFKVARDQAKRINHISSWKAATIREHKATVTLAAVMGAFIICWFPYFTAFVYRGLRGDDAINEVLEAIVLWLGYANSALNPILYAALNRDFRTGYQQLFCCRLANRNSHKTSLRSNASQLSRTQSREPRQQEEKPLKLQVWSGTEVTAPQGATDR
UniProt P07550, sequence (whole entry, looked up): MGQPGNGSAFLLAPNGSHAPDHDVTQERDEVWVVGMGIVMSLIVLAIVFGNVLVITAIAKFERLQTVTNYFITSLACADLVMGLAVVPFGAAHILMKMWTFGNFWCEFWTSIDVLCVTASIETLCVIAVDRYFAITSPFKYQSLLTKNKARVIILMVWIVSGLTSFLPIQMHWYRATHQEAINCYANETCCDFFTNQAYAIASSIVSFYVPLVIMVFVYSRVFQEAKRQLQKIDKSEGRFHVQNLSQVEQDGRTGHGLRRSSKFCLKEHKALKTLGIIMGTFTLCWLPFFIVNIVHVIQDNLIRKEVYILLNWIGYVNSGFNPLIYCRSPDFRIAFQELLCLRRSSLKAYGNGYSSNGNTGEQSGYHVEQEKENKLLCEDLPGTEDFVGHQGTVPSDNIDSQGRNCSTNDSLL
UniProt P25100, sequence (whole entry, looked up): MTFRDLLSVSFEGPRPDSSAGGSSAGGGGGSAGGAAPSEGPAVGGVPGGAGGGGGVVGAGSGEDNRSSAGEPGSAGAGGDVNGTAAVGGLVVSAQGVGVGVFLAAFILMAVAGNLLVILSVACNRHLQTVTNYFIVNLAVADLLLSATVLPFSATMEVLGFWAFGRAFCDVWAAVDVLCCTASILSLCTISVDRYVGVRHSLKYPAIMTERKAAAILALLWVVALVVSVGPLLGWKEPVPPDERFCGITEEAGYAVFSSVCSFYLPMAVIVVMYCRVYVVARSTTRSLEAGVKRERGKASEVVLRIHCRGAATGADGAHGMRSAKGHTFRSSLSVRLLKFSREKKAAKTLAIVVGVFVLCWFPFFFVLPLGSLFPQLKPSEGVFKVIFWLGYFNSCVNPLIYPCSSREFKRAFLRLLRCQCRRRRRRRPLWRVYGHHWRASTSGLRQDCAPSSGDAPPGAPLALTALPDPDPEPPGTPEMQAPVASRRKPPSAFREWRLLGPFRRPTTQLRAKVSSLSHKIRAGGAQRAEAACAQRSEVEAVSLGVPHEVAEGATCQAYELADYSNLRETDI
UniProt P50406, sequence (whole entry, looked up): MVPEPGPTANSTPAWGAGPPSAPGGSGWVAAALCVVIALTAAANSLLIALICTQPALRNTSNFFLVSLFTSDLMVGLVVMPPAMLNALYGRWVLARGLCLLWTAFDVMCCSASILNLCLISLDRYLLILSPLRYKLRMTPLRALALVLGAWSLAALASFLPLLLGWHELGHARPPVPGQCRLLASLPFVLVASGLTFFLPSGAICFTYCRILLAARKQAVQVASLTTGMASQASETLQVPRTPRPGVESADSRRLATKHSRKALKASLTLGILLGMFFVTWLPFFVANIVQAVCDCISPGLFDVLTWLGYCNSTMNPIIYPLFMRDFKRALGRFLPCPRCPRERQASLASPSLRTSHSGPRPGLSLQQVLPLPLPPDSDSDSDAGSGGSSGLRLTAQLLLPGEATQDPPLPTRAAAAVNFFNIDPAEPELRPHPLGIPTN
UniProt P45985, sequence (whole entry, looked up): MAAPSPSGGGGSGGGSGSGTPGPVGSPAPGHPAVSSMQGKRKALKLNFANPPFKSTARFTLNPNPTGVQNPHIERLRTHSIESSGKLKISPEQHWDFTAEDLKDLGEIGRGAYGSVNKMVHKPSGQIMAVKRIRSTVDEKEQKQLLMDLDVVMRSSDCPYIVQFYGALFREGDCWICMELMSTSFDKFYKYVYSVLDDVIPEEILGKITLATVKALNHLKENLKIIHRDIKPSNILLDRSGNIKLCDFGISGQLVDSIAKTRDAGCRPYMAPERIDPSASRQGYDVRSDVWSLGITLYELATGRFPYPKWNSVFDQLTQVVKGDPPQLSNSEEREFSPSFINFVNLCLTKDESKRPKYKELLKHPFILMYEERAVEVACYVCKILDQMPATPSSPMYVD
UniProt P35368, sequence (whole entry, looked up): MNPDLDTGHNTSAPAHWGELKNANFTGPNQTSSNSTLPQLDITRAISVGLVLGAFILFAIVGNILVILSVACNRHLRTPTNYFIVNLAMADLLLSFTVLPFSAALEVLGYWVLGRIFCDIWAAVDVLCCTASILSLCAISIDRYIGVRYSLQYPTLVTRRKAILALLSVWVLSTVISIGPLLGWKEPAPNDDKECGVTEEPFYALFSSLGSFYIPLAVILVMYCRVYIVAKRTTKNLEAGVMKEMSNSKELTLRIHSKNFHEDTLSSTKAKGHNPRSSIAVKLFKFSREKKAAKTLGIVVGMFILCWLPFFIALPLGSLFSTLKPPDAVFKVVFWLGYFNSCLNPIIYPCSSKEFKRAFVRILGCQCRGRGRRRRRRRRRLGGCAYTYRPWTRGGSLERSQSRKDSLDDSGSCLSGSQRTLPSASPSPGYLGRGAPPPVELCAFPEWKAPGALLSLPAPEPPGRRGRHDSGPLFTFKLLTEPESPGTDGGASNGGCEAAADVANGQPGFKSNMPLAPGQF
UniProt Q5BJF2, sequence (whole entry, looked up): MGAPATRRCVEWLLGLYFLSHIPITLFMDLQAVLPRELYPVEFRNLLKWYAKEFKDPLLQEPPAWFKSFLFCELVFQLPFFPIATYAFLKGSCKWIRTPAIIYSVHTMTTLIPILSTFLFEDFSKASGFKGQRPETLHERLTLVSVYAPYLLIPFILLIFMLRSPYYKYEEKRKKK
UniProt Q99720, sequence (whole entry, looked up): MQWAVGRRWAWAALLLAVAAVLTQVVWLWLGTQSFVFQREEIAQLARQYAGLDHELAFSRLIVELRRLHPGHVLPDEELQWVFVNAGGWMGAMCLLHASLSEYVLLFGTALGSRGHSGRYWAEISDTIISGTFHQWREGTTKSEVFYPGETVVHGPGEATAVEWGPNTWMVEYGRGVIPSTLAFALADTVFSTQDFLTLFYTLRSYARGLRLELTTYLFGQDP

Study 1 — method: competitive binding panel; tested at: 1 µM; reference: vehicle; measurement: remaining binding
Structure (SMILES): COc1ccc2[nH]c3c4[nH]c5ccc(OC)cc5c4c4c(c3c2c1)C(=O)NC4=O
WNK4 (Homo sapiens, UniProt Q96J92): 88%
RIPK4 (Homo sapiens, UniProt P57078): 83%
BMPR1A (Homo sapiens, UniProt P36894): 100%
PRKCH (Homo sapiens, UniProt P24723): 35%
PIP5K1C (Homo sapiens, UniProt O60331): 81%
STK32B (Homo sapiens, UniProt Q9NY57); item: YANK2: 97%

Study 2 — action: inhibitor; tested at: 1 µM; measurement: inhibition
SMILES: CC#CC(=O)N1CCC[C@H]1c1nc(-c2ccc(C(=O)Nc3ccccn3)cc2)c2c(N)nccn12
NEK3 (Homo sapiens, UniProt P51956); enzyme activity: 40%
Ribosomal protein S6 kinase alpha-4, N-terminal kinase domain (RPS6KA4, Homo sapiens, UniProt O75676): 0%
WNK3 (Homo sapiens, UniProt Q9BYP7); enzyme activity: 23%
STK32C (Homo sapiens, UniProt Q86UX6); enzyme activity: 12%
MAP2K4 (Homo sapiens, UniProt P45985); enzyme activity: 0%
ULK2 (Homo sapiens, UniProt Q8IYT8); enzyme activity: 0%
TNK2 (Homo sapiens, UniProt Q07912); enzyme activity: 31%
MAP3K2 (Homo sapiens, UniProt Q9Y2U5); enzyme activity: 0%

Study 3 — cell line: mouse MPNST tumor cells; method: high-content nuclear imaging; item: cell number; tested at: 10 µM; time: 12 h; setting: mean of 2 replicates; reference: plate mean; reading: higher = more cells; measurement: nuclei count
CCN(CC)CCCCNc1ncc2cc(-c3c(Cl)cccc3Cl)c(NC(=O)NC(C)(C)C)nc2n1: -1.62 z-score
Cc1[nH]c(/C=C2\C(=O)Nc3cc(-c4ccccc4)ccc32)c(C)c1CCC(=O)O: 2.49 z-score
C=CCc1cccc(/C=N/NC(=O)CN2CCN(Cc3ccccc3)CC2)c1O: -4.66 z-score
CC(=O)[C@H]1CC[C@H]2[C@@H]3CC=C4C[C@@H](O)CC[C@]4(C)[C@H]3CC[C@]12C: 2.73 z-score
Cc1c(-c2ccccc2)oc2c(C(=O)OCCN3CCCCC3)cccc2c1=O: 1.94 z-score
Cc1nn(-c2ccccc2)c(C)c1C=NN1CCN(Cc2ccccc2)CC1: 0.777 z-score
Cc1ccccc1OCC(O)CO (stereo not shown): 1.08 z-score
CC(Cc1cccc(C(F)(F)F)c1)NCCOC(=O)c1ccccc1 (stereo not shown): -0.497 z-score
C=CCN(C)CCCCCCOc1ccc(C(=O)c2ccc(Br)cc2)c(F)c1: -4.93 z-score
CN1[C@@H]2CC[C@H]1C[C@@H](OC(c1ccccc1)c1ccccc1)C2: -0.237 z-score
O=C(Nc1ccccc1)Nc1ccc(-c2ccc(C(=O)[C@@H]3CCC[C@H]3C(=O)O)cc2)cc1: 1.98 z-score

Study 4 — cell line: HaCaT; tested at: 100 µM; time: 60 h; measurement: viability
Nc1nc(=O)[nH]cc1F: 129%
CCCc1cc(C(N)=S)ccn1: 145%
NC(=O)N1c2ccccc2CCc2ccccc21: 142%
CC[C@H](C)C[C@H](C)CCCCCCCCC(=O)N[C@H]1C[C@@H](O)[C@@H](NCCN)NC(=O)[C@@H]2[C@@H](O)CCN2C(=O)[C@H]([C@H](O)CCN)NC(=O)[C@H]([C@H](O)[C@@H](O)c2ccc(O)cc2)NC(=O)[C@@H]2C[C@@H](O)CN2C(=O)[C@H]([C@@H](C)O)NC1=O: 49.7%
CCOc1cc([C@@H](CS(C)(=O)=O)N2C(=O)c3cccc(NC(C)=O)c3C2=O)ccc1OC: 129%

Study 5 — observed: cell-free assay; tested at: 10 µM; measurement: inhibition
Compound: CN1C(=O)[C@@H](N2CCc3c(nn(Cc4ccccc4)c3Br)C2=O)COc2ccccc21
ADRA1D (Homo sapiens, UniProt P25100): 5.52%
CHRM2 (Homo sapiens, UniProt P08172): -4.12%
TMEM97 (Homo sapiens, UniProt Q5BJF2): 53.9%
HRH3 (Homo sapiens, UniProt Q9Y5N1): -12.3%
ADRA2C (Homo sapiens, UniProt P18825): 71.3%
ADRB3 (Homo sapiens, UniProt P13945): 39.3%
HRH1 (Homo sapiens, UniProt P35367): 9.99%
ADRB2 (Homo sapiens, UniProt P07550): 11.2%
SIGMAR1 (Homo sapiens, UniProt Q99720): -14.5%
ADRA2A (Homo sapiens, UniProt P08913): 68%
DRD3 (Homo sapiens, UniProt P35462): 3.31%
CHRM5 (Homo sapiens, UniProt P08912): 9.18%
DRD1 (Homo sapiens, UniProt P21728): 16.1%
HTR6 (Homo sapiens, UniProt P50406): 8.15%
CHRM4 (Homo sapiens, UniProt P08173): 11.7%
HTR7 (Homo sapiens, UniProt P34969): 5.69%
HRH2 (Homo sapiens, UniProt P25021): 0.52%
HRH4 (Homo sapiens, UniProt Q9H3N8): 14.7%
ADRA1B (Homo sapiens, UniProt P35368): -0.19%
ADRA2B (Homo sapiens, UniProt P18089): 59.6%
HTR2B (Homo sapiens, UniProt P41595): 38.3%
ADRB1 (Homo sapiens, UniProt P08588): 12%

Excerpt of the above (study 2):
Ribosomal protein S6 kinase alpha-4, N-terminal kinase domain (RPS6KA4, Homo sapiens, UniProt O75676): 0%
WNK3 (Homo sapiens, UniProt Q9BYP7); enzyme activity: 23%
STK32C (Homo sapiens, UniProt Q86UX6); enzyme activity: 12%
MAP2K4 (Homo sapiens, UniProt P45985); enzyme activity: 0%
ULK2 (Homo sapiens, UniProt Q8IYT8); enzyme activity: 0%
TNK2 (Homo sapiens, UniProt Q07912); enzyme activity: 31%
MAP3K2 (Homo sapiens, UniProt Q9Y2U5); enzyme activity: 0%
